Measured values from different studies.
A part holds a random share of what one study measured. Positions count from the first letter of the parent shown.

Series 1
Molecule: PhoQ, residues 284 288 289 292 302 303 SMYGEC
Technique: Sort-seq
Refers to: YFP reporter
Matrix: E. coli
Notes: PhoQ-PhoP variant library
Added: 10 µM Mg2+
Reference: high Mg2+ state
Reading: higher = stronger signaling
PhoP, residues 12 14 15 18 19 GMGLL (Escherichia coli, UniProt P23836) — fold induction: 0.896.
For PhoP, residues 12 14 15 18 19 LFHKL (Escherichia coli, UniProt P23836): fold induction read 6.82.
PhoP, residues 12 14 15 18 19 QQAYL (Escherichia coli, UniProt P23836) — fold induction: 1.17.

Series 2
Target: CCNB1, cyclin fold, Cln2 fusion (human)
Technique: yeast growth competition, sequencing
Matrix: yeast
Notes: weak parent motif
Reference: not given
Reading: higher = stronger binding
Starting sequence: E2F2 docking peptide (human); LPAKRKLDLEGIG
`LPAKRKLDLEAIG [G11A]`: “normalised enrichment score” -0.271.
Under “normalised enrichment score”, `LPAKRALDLEGIG [K6A]` is recorded as 0.199.
Under “normalised enrichment score”, `LPAKAKADLEGIG [R5A L7A]` is recorded as 0.141.
For `LPAKRKLDLEGAG [I12A]`, “normalised enrichment score” read -0.00245.
Under “normalised enrichment score”, `LPAKKKLDFEGIG [R5K L9F]` is recorded as 0.402.
For `LPAKRKLDFEGIG [L9F]`, “normalised enrichment score” read 2.14.
`LPAARKLDLEGIG [K4A]`: “normalised enrichment score” 0.977.
Under “normalised enrichment score”, `LPAKAKLDLEGIG [R5A]` is recorded as 0.741.
For `LPAKRKLDAEGIG [L9A]`, “normalised enrichment score” read 0.183.

Series 3
Target: ABI1, truncated, D143A, DHFR fusion (Arabidopsis thaliana)
Technique: DHFR PCA, deep sequencing
Matrix: yeast
Notes: methotrexate growth selection, single substitutions
Added: (+)-ABA 0.39 µM
Reference: wild-type fitted maximum
Reading: higher = stronger binding
Starting sequence: PYL1, truncated, DHFR fusion (Arabidopsis thaliana); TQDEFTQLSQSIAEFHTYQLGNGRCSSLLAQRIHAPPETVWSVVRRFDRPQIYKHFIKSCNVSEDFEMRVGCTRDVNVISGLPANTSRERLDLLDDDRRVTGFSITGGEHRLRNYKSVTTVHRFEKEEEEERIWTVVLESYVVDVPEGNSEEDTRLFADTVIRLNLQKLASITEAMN; partner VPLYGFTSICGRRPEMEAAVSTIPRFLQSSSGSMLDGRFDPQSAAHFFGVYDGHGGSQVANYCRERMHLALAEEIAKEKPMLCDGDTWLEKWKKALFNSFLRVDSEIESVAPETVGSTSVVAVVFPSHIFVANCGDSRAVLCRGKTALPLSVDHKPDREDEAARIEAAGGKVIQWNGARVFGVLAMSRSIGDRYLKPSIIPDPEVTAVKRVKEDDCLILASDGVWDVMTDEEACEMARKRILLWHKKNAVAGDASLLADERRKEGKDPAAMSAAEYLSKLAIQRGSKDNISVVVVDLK
Under “relative binding score”, `H55R` is recorded as 69.8%.
Under “relative binding score”, `L156D` is recorded as -13.7%.
`E129L`: “relative binding score” 30.4%.
Under “relative binding score”, `E130Q` is recorded as 49%.
For `M68N`, “relative binding score” read 11.6%.
`T120R`: “relative binding score” -10.2%.
`L20F`: “relative binding score” 22%.
Under “relative binding score”, `S11K` is recorded as 9.73%.
Under “relative binding score”, `L91M` is recorded as 11%.
`S63P` — result for “relative binding score”: 53.6%.
For `T135G`, “relative binding score” read 4.49%.

Series 4
Target: Histone acetyltransferase KAT6A, both winged helices, GST fusion (KAT6A, Homo sapiens, UniProt Q92794, residues 1-181)
Technique: protein binding microarray
Form: double-stranded DNA, one strand shown
Matrix: in vitro
Tested at: not given
Notes: 8-mer, flanks averaged, mean of 2 arrays, mostly near background
Reference: not given
Reading: higher = stronger binding
Residues (chain): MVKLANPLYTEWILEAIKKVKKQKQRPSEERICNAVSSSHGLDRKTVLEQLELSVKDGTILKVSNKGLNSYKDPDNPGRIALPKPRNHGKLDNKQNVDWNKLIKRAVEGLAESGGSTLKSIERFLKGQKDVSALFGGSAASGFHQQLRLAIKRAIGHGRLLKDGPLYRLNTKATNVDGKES
`TAGCGAAA` gave an E-score of 0.0507.
`CGATATCA` has an E-score of -0.00697.
`CGCTATAG` gave an E-score of 0.144.
For `TACTTGCA`, the E-score was -0.0997.
For `ATTAGCGA`, the E-score was 0.094.
`GTGAAACA` has an E-score of 0.0536.
`CGGACGGC` has an E-score of 0.312.
`AATGACGA` gave an E-score of -0.163.
`GAGAAGTA` gave an E-score of -0.0934.
`ATGAGGAC` has an E-score of -0.0386.
With `TGGGACCA` the E-score was -0.187.
The E-score of `AGCAGGCT` is reported as -0.121.
For `ACAATAAG`, the E-score was -0.0636.
`TAATTTCA` gave an E-score of -0.0317.
For `ATCGTAGG`, the E-score was -0.196.
The E-score of `ACTACTGA` is reported as -0.176.
For `CTCATACC`, the E-score was -0.142.

Repeated from above (series 4):
`CGATATCA` has an E-score of -0.00697.
`CGCTATAG` gave an E-score of 0.144.
For `TACTTGCA`, the E-score was -0.0997.
For `ATTAGCGA`, the E-score was 0.094.
`GTGAAACA` has an E-score of 0.0536.
`CGGACGGC` has an E-score of 0.312.
